# Assay results collected from several papers.
# ± gives the spread as reported.
# Sequence of UniProt P49327 (whole entry, looked up): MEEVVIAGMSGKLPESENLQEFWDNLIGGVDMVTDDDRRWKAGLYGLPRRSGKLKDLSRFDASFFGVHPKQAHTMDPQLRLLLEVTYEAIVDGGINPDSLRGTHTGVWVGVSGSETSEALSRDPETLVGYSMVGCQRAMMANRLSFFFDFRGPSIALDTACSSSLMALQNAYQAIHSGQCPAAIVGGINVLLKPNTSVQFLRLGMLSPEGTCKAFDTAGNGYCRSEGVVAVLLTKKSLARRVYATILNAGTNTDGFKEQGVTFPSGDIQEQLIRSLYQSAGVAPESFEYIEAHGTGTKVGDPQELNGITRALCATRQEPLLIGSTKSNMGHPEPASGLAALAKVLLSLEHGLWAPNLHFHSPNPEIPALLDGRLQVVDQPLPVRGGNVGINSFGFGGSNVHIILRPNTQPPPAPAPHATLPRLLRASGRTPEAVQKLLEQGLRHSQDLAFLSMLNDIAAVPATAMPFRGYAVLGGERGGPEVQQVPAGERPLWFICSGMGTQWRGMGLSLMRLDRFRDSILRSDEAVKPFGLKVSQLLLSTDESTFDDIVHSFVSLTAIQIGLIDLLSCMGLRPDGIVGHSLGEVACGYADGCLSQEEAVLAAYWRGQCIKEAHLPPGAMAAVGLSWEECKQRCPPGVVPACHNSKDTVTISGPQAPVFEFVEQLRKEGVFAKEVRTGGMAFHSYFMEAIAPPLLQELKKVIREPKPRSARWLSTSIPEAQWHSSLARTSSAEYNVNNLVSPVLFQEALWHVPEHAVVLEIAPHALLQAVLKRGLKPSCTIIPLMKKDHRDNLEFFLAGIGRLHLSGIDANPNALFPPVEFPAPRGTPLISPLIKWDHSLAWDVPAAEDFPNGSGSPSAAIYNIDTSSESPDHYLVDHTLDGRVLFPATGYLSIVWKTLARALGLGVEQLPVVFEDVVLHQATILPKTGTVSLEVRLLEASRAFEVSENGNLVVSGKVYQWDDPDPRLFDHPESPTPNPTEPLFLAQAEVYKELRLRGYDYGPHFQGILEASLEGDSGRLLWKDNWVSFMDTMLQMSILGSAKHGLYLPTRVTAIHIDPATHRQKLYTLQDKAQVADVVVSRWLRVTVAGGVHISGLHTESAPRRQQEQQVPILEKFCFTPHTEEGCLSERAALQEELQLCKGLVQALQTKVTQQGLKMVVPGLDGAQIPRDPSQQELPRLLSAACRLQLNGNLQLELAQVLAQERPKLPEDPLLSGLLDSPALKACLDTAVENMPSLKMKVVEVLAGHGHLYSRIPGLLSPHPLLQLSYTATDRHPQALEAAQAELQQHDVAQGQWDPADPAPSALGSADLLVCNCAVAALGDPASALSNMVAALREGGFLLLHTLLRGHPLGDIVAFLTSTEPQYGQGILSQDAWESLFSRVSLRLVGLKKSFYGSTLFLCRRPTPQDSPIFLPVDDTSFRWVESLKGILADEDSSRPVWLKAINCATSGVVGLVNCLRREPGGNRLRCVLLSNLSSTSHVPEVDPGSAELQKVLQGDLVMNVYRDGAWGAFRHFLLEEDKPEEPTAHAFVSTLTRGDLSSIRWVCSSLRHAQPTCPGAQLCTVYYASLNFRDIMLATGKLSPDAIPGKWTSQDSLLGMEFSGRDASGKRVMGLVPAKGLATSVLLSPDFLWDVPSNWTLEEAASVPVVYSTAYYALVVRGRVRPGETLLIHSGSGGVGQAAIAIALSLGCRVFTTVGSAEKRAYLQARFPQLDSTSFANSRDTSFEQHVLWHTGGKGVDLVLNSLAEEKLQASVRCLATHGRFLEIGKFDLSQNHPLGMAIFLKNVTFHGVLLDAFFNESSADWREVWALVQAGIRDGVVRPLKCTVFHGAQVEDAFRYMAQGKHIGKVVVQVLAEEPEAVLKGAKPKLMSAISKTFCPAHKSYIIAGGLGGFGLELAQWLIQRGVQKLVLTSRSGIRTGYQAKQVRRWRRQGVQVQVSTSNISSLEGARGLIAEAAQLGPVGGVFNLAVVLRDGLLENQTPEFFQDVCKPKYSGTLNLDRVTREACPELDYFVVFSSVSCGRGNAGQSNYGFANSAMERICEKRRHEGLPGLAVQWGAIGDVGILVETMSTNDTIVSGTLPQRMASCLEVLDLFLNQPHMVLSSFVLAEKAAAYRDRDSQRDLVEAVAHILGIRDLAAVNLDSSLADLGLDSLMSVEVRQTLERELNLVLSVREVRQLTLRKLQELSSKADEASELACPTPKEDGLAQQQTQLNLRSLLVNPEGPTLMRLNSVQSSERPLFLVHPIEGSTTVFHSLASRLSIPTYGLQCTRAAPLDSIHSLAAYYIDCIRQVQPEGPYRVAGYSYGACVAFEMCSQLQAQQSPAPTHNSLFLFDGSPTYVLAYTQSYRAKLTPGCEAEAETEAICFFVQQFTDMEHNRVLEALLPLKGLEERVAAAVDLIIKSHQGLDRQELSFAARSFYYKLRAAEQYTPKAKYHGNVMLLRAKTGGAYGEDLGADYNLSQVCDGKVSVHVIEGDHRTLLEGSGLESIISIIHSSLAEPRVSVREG
Compound,tested on,assay,test system,conditions,scale,endpoint,result
CC1(C)C(C=C(Cl)Cl)C1C(=O)OC(C#N)c1ccc(F)c(Oc2ccccc2)c1 (stereo not drawn),,refers to: CYP2C8,"human, age 6 months, recombinant human CYP2C8",0.1 µM,,enzyme contribution to clearance,0.67%
O=c1nc(NO)ccn1[C@@H]1O[C@H](CO)[C@@H](O)[C@H]1O,,,rat fetus dialysate,"25 ng/mL, 6 h, room temperature, low concentration, together with: molnupiravir 5 ng/mL",,bench-top stability,106 ± 6.34%
CC(=O)c1c(C)c2cnc(Nc3ccc(C4CCN(CCS(C)(=O)=O)CC4)cn3)nc2n(C2CCCC2)c1=O,,,HR+/HER2- advanced breast cancer patients,"oral, 100 mg bid, all grades, monotherapy arm",,patients with any TEAE,100%
CN1CC[C@@H](c2c(O)cc(O)c3c(=O)cc(-c4ccc(C(F)(F)F)cc4Cl)oc23)[C@@H]1CO,,refers to: Neutropenia,relapsed B-cell malignancies,"oral, 200 mg, grade 3-4, intermittent dosing",,patients with adverse event,0%
CC(C)C[C@H](NC(=O)[C@H](CCCCN)NC(=O)OCC1c2ccccc2-c2ccccc21)C(=O)N[C@H](C(=O)N[C@@H](Cc1ccccc1)C(=O)N[C@@H](Cc1ccccc1)C(=O)N[C@@H](CCCCN)C(=O)NCC(=O)N[C@@H](Cc1ccccc1)C(=O)N[C@@H](C)C(=O)N[C@@H](Cc1c[nH]c2ccccc12)C(=O)N[C@@H](CC(N)=O)C(=O)N[C@H](C(=O)N[C@H]1CSSC[C@@H](C(=O)N[C@@H](Cc2c[nH]cn2)C(=O)N[C@@H](CCCNC(=N)N)C(=O)N[C@@H](CCCNC(=N)N)C(=O)N[C@@H](C)C(=O)N[C@@H](CC(N)=O)C(N)=O)NC(=O)[C@H](C(C)C)NC(=O)[C@H](CCCNC(=N)N)NC(=O)[C@H](C(C)C)NC(=O)CNC(=O)[C@H](CC(N)=O)NC(=O)[C@H](CCCNC(=N)N)NC(=O)[C@H](Cc2ccc(O)cc2)NC(=O)[C@H](C(C)C)NC1=O)C(C)C)C(C)C,,,"ICR mice, blood","intraperitoneal, 10 mg/kg, day 5",,mean corpuscular haemoglobin,13.7 ± 0.16 pg
CO[C@H]1C[C@@H]2CC[C@@H](C)[C@@](O)(O2)C(=O)C(=O)N2CCCC[C@H]2C(=O)O[C@H]([C@H](C)C[C@@H]2CC[C@@H](OC(=O)NCCOCCOCCOCCOCCOCCOCCOCCOCCC(=O)N3CCc4cc(Cn5nc(-c6ccc7oc(N)nc7c6)c6c(N)ncnc65)ccc4C3)[C@H](OC)C2)C[C@@H](O)[C@H](C)/C=C(\C)[C@@H](O)[C@@H](OC)C(=O)[C@H](C)C[C@H](C)/C=C/C=C/C=C/1C,,phase 1 dose escalation,advanced solid tumour patients,"intravenous, 12 mg weekly, any grade",,deaths due to TRAEs,0%
Cn1c(-c2ccc(C(N)=O)cc2F)nnc1C(C)(C)Oc1c(F)cc(Cl)cc1F,,,human,"oral, 3 mg, single ascending dose",,gastrointestinal disorder TEAE,0%
C=CC[N+]1([C@H]2C[C@H]3[C@@H]4CC[C@H]5C[C@H](O)[C@@H](N6CCOCC6)C[C@]5(C)[C@H]4CC[C@]3(C)[C@H]2OC(C)=O)CCCC1,,,"Sprague Dawley rat, plasma","intravenous, 0.2 mg/kg, together with: vehicle IV",,terminal half-life,19.5 min
CC(C)[C@@H]1NC(=O)CNC(=O)[C@H](CC(N)=O)NC(=O)[C@H](CCCNC(=N)N)NC(=O)[C@H](Cc2ccc(O)cc2)NC(=O)[C@H](C(C)C)NC(=O)[C@@H](NC(=O)[C@@H](NC(=O)[C@H](CC(N)=O)NC(=O)[C@H](Cc2c[nH]c3ccccc23)NC(=O)[C@H](C)NC(=O)[C@H](Cc2ccccc2)NC(=O)CN)C(C)C)CSSC[C@@H](C(=O)N[C@@H](Cc2c[nH]cn2)C(=O)N[C@@H](CCCNC(=N)N)C(=O)N[C@@H](CCCNC(=N)N)C(=O)N[C@@H](C)C(=O)N[C@@H](CC(N)=O)C(N)=O)NC(=O)[C@H](C(C)C)NC(=O)[C@H](CCCNC(=N)N)NC1=O,,"circular dichroism, refers to: β-Turn",PBS,"80 µM, pH 7.4, together with: LPS 1 µM",,secondary structure content,21.2%
Brc1ccc(Oc2cc(Br)c(Br)cc2Br)c(Br)c1,,ultrafiltration,cow milk whey,200 nM nominal in whole milk,,final permeate concentration,0.49 nM
Nc1nc2cc(-c3ccc4ncc(C(=O)N5CCOCC5)n4c3)ccc2o1,,,"human, advanced solid tumours","100–300 mg once daily, all-cause",,discontinuation due to adverse events,17%
O=C1Nc2cc3[nH]nc(-c4ccncc4)c3cc2CN1Cc1ccccc1,,refers to: Photopsia,patients with advanced solid tumours,"intravenous, dose not given",,patients with TEAE,15%
O=C(Nc1ccccc1)C1CCN(C(=O)Oc2cccnc2)CC1,,psychotropic effects VAS,healthy women,100 mg,"baseline: pre-dose baseline, direction not given",change in Body score,2.1
C[C@]1(CO)Cc2ncn(-c3ccc(C#N)c(Cl)c3)c2C(=O)O1,,,"healthy men, serum","dose not given, mean, maximum not exceeded",baseline: baseline,change in serum potassium,≤ 11%
COc1cc2c(Oc3ccc4[nH]c(C)cc4c3F)ccnc2cc1OCC1(N)CC1,,,paediatric refractory sarcoma patients,12 mg,,Hyperuricaemia incidence,18.2%
C=CC(=O)N1CC[C@H](n2nc(C#Cc3cc(OC)cc(OC)c3)c3c(N)ncnc32)C1,,,patients with advanced solid tumours,"oral, dose not given, Vomiting, any grade, QD, together with: sevelamer hydrochloride",,adverse drug reaction incidence,18.2%
CCCCN1CCC(COC(=O)c2ccc(N)c(O[11CH3])c2)CC1,,,"rhesus monkey, NaF-inhibited plasma",baseline,,plasma free fraction,0.442 ± 0.028
CN1CCN(S(=O)(=O)c2cc([N+](=O)[O-])ccc2N(CCOS(C)(=O)=O)CCOS(C)(=O)=O)CC1,,,"naive NOD/SCID mice, pooled blood","intraperitoneal, 18.8 mg/kg, week 4",,albumin,41 g/L
O=c1cc(-c2ccc(O)c(O)c2)oc2cc(O)cc(O)c12,,,"male Sprague-Dawley rat, obese","oral, 100 mg/kg of neohesperidin, 24 to 36 h",,faecal excreted amount,58.7 ± 45.5 ng
C=CCNc1c(O)cc2c(O)c1C[C@@H](C)C[C@H](OC)[C@H](O)[C@@H](C)/C=C(\C)[C@H](OC(N)=O)[C@@H](OC)/C=C\C=C(/C)C(=O)N2,,,"unresectable or metastatic STS, GIST, other","intravenous, 400 mg/m^2",,patients with nausea TEAE,53%
COc1ncccc1-c1cnn2ccc(N3CCN(C(=O)OC(C)C)CC3)nc12,,,"mouse, SNL model, plasma","oral, 10 mg/kg, 30 min",,drug concentration,3.6 µM
O=c1ccc2ncc(=O)n3c2n1C[C@H]3CN1CCC(NCc2cc3c(cn2)OCCC3)CC1,,refers to: respiratory thoracic mediastinal disorders,healthy human participants,"oral, 1500 mg, together with: rifampicin 600 mg",,adverse event incidence,6%
Cc1cc(C)c(CNC(=O)c2cc(Cl)c3c(c2C)O[C@@](C)([C@H]2CC[C@H](N(C)C)CC2)O3)c(=O)[nH]1,,,"human, relapsed/refractory NHL","concentration not given, treatment-related TEAEs, grade 5",,Rash incidence,0%
C[C@H]1CN(c2n[nH]c3nc(N[C@H]4CC[C@H](NS(=O)(=O)CCC(F)(F)F)CC4)ncc23)CCO1,"Fatty acid synthase (FASN, Homo sapiens, UniProt P49327)","inhibitor, Kinobeads competition profiling",,0.032 µM,baseline: vehicle,relative abundance,0.75
C[C@@H](NC(=O)N1C(=O)[C@H](Cc2ccnc(N)c2)[C@H]1C(=O)O)C1CCCCC1,,,healthy adult Chinese volunteers,"continuous intravenous infusion, 1.0 mg/kg/h, 5-day infusion, CTCAE 5.0 grading",,incidence of urine ketone body positive,0%
CN(C)c1ccc(-c2nc(-c3cccs3)c(-c3cccs3)[nH]2)cc1,Vero-E6,CellTiter-Glo ATP,,"72 h, first round 5-point","baseline: DMSO 0%, hyamine -100%, more negative, more toxic",maximum response,-1.01%
O=[N+]([O-])c1ccc2c(c1)S(=O)(=O)C=C2,,,"male C57BL/6 mice, blood","intraperitoneal, 10 mg/kg, day 8, group average",,mean corpuscular volume,52.8 fL
CCS(=O)(=O)Nc1ccc(Oc2ccc(F)cc2F)c(-c2cn(C)c(=O)c3[nH]ccc23)c1,,fatal Escherichia sepsis,"human, relapsed/refractory AML","oral, dose not given",,treatment-emergent adverse events,0%
CC(=O)N1CCC(C(=O)N2CCN3C(=O)c4cc(-c5ccccc5)ccc4NC(=O)C3C2)CC1 (stereo not drawn),Salmonella typhimurium,,TA1537,"500 µg/plate, together with: rat liver S9",baseline: vehicle,fold increase in revertants,1.9
CCCN(CCC)CCNC(=O)c1cc(-c2ccc(Br)s2)nc2ccccc12,Vero-E6,CellTiter-Glo ATP,,"72 h, retest 8-point duplicates","baseline: DMSO 0%, hyamine -100%, more negative, more toxic",maximum response,-17.5%

# For quick reference, copied from above:
Compound,tested on,assay,test system,conditions,scale,endpoint,result
C=CC(=O)N1CC[C@H](n2nc(C#Cc3cc(OC)cc(OC)c3)c3c(N)ncnc32)C1,,,patients with advanced solid tumours,"oral, dose not given, Vomiting, any grade, QD, together with: sevelamer hydrochloride",,adverse drug reaction incidence,18.2%
CC(=O)N1CCC(C(=O)N2CCN3C(=O)c4cc(-c5ccccc5)ccc4NC(=O)C3C2)CC1 (stereo not drawn),Salmonella typhimurium,,TA1537,"500 µg/plate, together with: rat liver S9",baseline: vehicle,fold increase in revertants,1.9
CCCN(CCC)CCNC(=O)c1cc(-c2ccc(Br)s2)nc2ccccc12,Vero-E6,CellTiter-Glo ATP,,"72 h, retest 8-point duplicates","baseline: DMSO 0%, hyamine -100%, more negative, more toxic",maximum response,-17.5%
O=C(Nc1ccccc1)C1CCN(C(=O)Oc2cccnc2)CC1,,psychotropic effects VAS,healthy women,100 mg,"baseline: pre-dose baseline, direction not given",change in Body score,2.1
